Measurements from different studies.
Numbered parts are unrelated; each lists some results of a single study. Changes are numbered by the printed parent chain.
Chain of UniProt O15294 (whole entry, looked up): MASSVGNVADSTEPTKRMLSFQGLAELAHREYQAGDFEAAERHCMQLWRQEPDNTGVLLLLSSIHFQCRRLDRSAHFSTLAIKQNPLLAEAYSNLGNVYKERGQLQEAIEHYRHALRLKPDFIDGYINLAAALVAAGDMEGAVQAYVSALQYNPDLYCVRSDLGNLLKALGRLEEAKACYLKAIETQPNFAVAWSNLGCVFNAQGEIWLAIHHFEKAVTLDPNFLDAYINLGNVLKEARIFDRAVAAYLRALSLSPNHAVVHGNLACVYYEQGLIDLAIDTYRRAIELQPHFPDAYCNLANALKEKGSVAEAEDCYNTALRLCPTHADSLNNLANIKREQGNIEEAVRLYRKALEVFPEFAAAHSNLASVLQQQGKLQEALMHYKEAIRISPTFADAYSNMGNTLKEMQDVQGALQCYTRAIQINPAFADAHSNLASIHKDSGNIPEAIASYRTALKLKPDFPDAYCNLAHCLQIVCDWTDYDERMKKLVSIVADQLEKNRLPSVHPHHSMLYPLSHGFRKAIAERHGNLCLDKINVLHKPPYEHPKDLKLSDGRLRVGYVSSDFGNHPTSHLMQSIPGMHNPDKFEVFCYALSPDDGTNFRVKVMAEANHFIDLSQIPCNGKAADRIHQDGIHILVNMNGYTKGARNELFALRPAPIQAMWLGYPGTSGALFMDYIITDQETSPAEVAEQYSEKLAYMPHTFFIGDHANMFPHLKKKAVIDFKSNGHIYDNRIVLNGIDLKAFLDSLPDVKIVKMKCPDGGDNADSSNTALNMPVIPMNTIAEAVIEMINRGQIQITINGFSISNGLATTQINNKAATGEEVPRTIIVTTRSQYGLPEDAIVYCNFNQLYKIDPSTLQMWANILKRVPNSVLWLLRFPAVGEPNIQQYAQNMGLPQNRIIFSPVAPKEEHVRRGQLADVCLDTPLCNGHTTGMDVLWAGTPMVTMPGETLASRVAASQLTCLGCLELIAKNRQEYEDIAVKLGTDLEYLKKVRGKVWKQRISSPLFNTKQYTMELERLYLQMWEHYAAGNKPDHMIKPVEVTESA

Set 1 — target: CCNA1, cyclin fold, Cln2 fusion (human); technique: yeast growth competition, sequencing; matrix: yeast; notes: weak parent motif; reference: not given; direction: higher = stronger binding
Parent: viral docking peptide; CKVKRKLFGSENI; partner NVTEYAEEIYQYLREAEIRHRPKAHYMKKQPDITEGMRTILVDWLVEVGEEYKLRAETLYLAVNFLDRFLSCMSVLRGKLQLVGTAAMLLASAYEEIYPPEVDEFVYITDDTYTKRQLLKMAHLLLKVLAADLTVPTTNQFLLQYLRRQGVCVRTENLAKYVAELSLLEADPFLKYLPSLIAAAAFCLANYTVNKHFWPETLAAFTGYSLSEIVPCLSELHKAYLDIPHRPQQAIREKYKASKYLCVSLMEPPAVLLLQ
Substitution | normalised enrichment score
G9A | 0.29
C1A | 0.547
S10A | 0.574
R5A L7A | 0.285
V3A | 0.325
K4A | 0.555
I13A | 0.628
R5K | -0.266

Set 2 — target: vanadate, free oxyanion; technique: microfluidic competitive inhibition; matrix: in vitro, cell-free expressed; tested at: not given; direction: lower = stronger binding
Notes: derived from inhibition constants, unchanged parent 676 nM
Parent: PafA, mature enzyme, eGFP fusion (Elizabethkingia meningoseptica, UniProt Q9KJX5); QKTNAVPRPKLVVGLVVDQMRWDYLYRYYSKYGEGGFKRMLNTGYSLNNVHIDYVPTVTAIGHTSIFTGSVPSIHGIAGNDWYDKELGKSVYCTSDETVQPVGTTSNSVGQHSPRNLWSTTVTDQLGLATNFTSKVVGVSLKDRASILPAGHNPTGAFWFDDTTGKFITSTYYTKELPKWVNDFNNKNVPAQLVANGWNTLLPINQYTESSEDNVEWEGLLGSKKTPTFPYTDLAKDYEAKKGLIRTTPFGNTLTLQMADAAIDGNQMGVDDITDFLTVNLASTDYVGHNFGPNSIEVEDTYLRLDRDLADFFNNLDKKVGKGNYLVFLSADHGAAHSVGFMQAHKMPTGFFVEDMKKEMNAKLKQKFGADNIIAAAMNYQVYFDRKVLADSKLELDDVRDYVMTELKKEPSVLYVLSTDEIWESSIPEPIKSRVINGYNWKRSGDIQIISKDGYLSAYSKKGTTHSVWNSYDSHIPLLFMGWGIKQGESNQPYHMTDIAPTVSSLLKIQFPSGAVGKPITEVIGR
Substitution | oxyanion analog dissociation constant
D183G | 657 nM
N266V | 640 nM
Q267G | 872 nM
T120G | 546 nM
T248V | 1.03 µM
Q1V | 842 nM
L303G | 870 nM
K175V | 856 nM

Further values, each from its own experiment
Molecule | target | assay | system | setting | scale | measurement | result
TAPFYPPAYFIQVFK | UDP-N-acetylglucosamine--peptide N-acetylglucosaminyltransferase 110 kDa subunit (OGT, Homo sapiens, UniProt O15294) | binding, phage display NGS | peptide | concentration not given, with: OGT 1 µg | reference: input library | enrichment fold change | 3.26
O=C(NCc1ncc(C(F)(F)F)cc1Cl)c1ccc2c(c1)C1(CCS(=O)(=O)CC1)[C@@H](C1CC1)N2S(=O)(=O)c1ccc(F)cc1 | D(1B) dopamine receptor (DRD5, Homo sapiens, UniProt P21918) | ligand displacement |  | 10 µM |  | inhibition | -0.49%

A few entries again (set 2):
Substitution | oxyanion analog dissociation constant
Q267G | 872 nM
T120G | 546 nM
